Published values from different studies.
Each numbered part is a random draw from the data of one study; scales do not carry over between parts.

Series 1
Target: Sal-like protein 4, full length isoform A (SALL4, Homo sapiens, UniProt Q9UJQ4, residues 1-1053)
Chain of UniProt Q9UJQ4 (whole entry, looked up): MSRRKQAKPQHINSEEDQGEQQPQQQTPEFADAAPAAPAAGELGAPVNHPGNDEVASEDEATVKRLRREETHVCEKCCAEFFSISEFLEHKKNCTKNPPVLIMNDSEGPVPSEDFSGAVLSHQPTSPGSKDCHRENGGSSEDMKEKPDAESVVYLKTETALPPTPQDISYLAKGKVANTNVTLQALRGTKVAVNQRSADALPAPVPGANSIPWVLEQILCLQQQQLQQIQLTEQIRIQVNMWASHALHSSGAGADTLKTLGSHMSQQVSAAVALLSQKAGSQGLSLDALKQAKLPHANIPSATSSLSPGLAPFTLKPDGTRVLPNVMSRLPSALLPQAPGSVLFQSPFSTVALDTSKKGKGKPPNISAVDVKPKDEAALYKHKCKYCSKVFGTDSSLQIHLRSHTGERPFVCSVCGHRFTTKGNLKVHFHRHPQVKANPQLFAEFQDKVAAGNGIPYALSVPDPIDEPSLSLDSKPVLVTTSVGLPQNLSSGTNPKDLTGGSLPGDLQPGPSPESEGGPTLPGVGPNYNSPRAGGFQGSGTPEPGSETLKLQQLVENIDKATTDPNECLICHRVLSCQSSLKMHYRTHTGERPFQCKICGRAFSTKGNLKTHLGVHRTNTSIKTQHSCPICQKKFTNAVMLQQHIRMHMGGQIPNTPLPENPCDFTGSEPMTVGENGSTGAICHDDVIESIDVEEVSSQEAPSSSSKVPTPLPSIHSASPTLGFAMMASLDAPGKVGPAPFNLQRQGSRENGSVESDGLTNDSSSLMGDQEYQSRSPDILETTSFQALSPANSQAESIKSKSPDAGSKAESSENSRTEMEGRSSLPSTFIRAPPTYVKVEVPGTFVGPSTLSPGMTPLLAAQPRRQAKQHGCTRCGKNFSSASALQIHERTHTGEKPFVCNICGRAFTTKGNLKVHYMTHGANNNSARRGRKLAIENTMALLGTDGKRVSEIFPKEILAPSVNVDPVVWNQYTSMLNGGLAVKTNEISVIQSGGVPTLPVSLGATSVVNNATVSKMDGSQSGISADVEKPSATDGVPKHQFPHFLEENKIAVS
Technique: universal PBM
Molecule type: double-stranded DNA, one strand shown
Medium: in vitro
Concentration: 600 nM
Notes: 8-mer, flanks averaged, mean of replicates
Direction: higher = stronger binding
| Oligonucleotide | E-score |
| --- | --- |
| CCCGCTAG | -0.184 |
| CACTTGTA | 0.147 |
| GGAAAGCC | -0.251 |
| AACGCGCA | -0.0712 |
| GGAGCCTA | -0.151 |
| AAGAAATC | 0.111 |
| GAATCTCA | -0.106 |
| CCCGTTCG | -0.133 |
| CGGGGCCA | -0.421 |
| CCTCCTGA | -0.173 |

Series 2
Target: Interferon regulatory factor 5, full length, phosphomimetic (IRF5, Homo sapiens, UniProt Q13568-2, residues 1-514, K96S/S451D/S453D/S456D/S462D)
Technique: protein-binding microarray
Molecule type: double-stranded DNA, one strand shown
Medium: in vitro
Concentration: 250 nM
Notes: 60-bp whole probe
Added: salmon DNA 0.4 mg/ml
Baseline: random background probes
Direction: higher = stronger binding
Shared flanks, not repeated: GCCTAGCAC … GTCTTGATTCGCTTGACGCTGCTG
| Oligonucleotide | log fluorescence [z-score] |
| --- | --- |
| TTAGGATTCGACTTTCGGTTAGTGCTA | 9.61 |
| TTAGGTTTTGGACTGGGTTAGTGCTAG | 0.227 |
| GACGATATCGGCTATCGAGACGTGCTA | 2.33 |
| GACGAACTGAGTATGGAGACGTGCTAG | -0.535 |
| ATGCCTTTCTCTTGGAGCTTGTGCTAG | 0.946 |
| TTATGTCTCGGTATCGGTTAGTGCTAG | 5.62 |
| TCAGCTTTCCTGATGACACTGTGCTAG | -0.0875 |

Series 3
Target: Histone acetyltransferase KAT6A, winged helix 1, GST fusion (KAT6A, Homo sapiens, UniProt Q92794, residues 1-85)
Technique: protein binding microarray
Molecule type: double-stranded DNA, one strand shown
Medium: in vitro
Concentration: not given
Notes: 8-mer, flanks averaged, mean of 2 arrays, mostly near background
Baseline: not given
Direction: higher = stronger binding
Target sequence (chain): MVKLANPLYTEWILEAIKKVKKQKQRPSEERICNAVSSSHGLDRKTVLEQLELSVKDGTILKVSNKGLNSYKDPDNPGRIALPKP
| Oligonucleotide | E-score |
| --- | --- |
| CTAAAATC | -0.148 |
| CCTGGTAC | -0.105 |
| AGATGAAG | -0.203 |
| AGAGGGTG | -0.105 |
| ATTCATGC | -0.048 |
| CCCGTGAG | 0.283 |
| CAGACAGG | -0.0189 |
| ACAAACCG | -0.0343 |
| AAGGCCGG | 0.306 |
| ATCTTGAC | -0.196 |
| CACTCTCC | -0.0814 |

Mixed results
| Molecule | target | assay | system | conditions | how to read | quantity | value |
| --- | --- | --- | --- | --- | --- | --- | --- |
| PhoQ, residues 284 288 289 292 302 303 AGGLSV | PhoP, residues 12 14 15 18 19 QQAYL (Escherichia coli, UniProt P23836) | Sort-seq, item: YFP reporter | E. coli | PhoQ-PhoP variant library, added: 10 µM Mg2+ | baseline: high Mg2+ state, higher = stronger signaling | fold induction | 14.2 |

A few entries again (series 1):
| Oligonucleotide | E-score |
| --- | --- |
| CCTCCTGA | -0.173 |
| GGAGCCTA | -0.151 |
